Assay results from different studies.
Cell line: MOLT-4

SMILES	assay	setting	how to read	quantity	result
NC(=O)c1ccc(-c2ccccc2Cl)c2c3c([nH]c12)CCC(N)C3 (stereo not shown)	cell growth or viability	96 h	–	IC50	21.5 nM
O=C(Nc1nnc2c1c(-c1ccc(Cl)cc1)nc1sc(=Cc3ccco3)c(=O)n12)c1ccccc1 (mixture of isomers)	SRB	10 µM, NCI60 single-dose screen	baseline: untreated	cell growth	32.8%
Cc1ccc(-c2c(C#N)c(N)nc3c2Cc2cc(O)ccc2-3)o1	cell viability, CellTiter-Glo	–	no inhibition at 100 µM	IC50	> 100000 nM
CCOc1cncc(-c2ccc(NC(=O)C3(c4ccnc(NS(=O)(=O)C5CC5)n4)CCOCC3)nc2)n1	cell growth or viability, ATP luminescence	72 h	–	IC50	16 nM
CC[C@H](CO)Nc1nc(NCc2ccc(-c3ccccn3)cc2)c2ncn(C(C)C)c2n1	TMT mass spectrometry proteomics, item: CENPE protein	1 µM, 1 h	baseline: DMSO	log2 fold change	-0.546
N#Cc1c(N)nc2c(c1-c1ccccc1)Cc1cc(O)ccc1-2	cell growth or viability, ATP luminescence	–	–	IC50	10700 nM
Cc1sc2c(c1C)C(c1ccc(Cl)cc1)=N[C@@H](CC(=O)NCCCCCCCCC(=O)N1CCN(C(=O)c3cc(Cc4n[nH]c(=O)c5ccccc45)ccc3F)CC1)c1nnc(C)n1-2	cell growth or viability, ATP luminescence	72 h	–	IC50	138 nM
CN1CCC(N[C@@H]2CCc3[nH]c4c(C(N)=O)ccc(-c5ccccc5Cl)c4c3C2)CC1	cell growth or viability	–	–	IC50	13.9 nM
C1=[N+]2CCCC[N+]3=Cc4ccc5[n]4[Au-]23[n]2c1ccc2-c1nc2ccccc2nc1-5.F[P-](F)(F)(F)(F)F	–	NCI60 five-dose screen	–	TGI	4 -log M
N#Cc1c(N)nc2c(c1-c1ccc(CO)o1)Cc1cccc(O)c1-2	cell viability, CellTiter-Glo	–	no inhibition at 100 µM	IC50	> 100000 nM
COc1cc(C(=O)N/N=C/c2cccc3ccccc23)cc(OC)c1OC	cell growth or viability, MTT	48 h	–	IC50	54 nM
N#Cc1c(N)nc2c(c1-c1ccc[nH]1)Cc1cc(O)ccc1-2	cell growth or viability, ATP luminescence	–	–	IC50	3740 nM
CNS(=O)(=O)Nc1nccc(Cc2c(C)c3ccc(Oc4ncccc4F)cc3oc2=O)c1F	cell viability	7 days	–	IC50	> 1000 nM
